{"data": "Published values pooled from the literature", "note": "A part holds a random share of what one study measured."}
{"data": "Block 1", "target": "Centromere-binding protein 1, full length, N-terminal tag (CBF1, Saccharomyces cerevisiae, UniProt P17106, residues 1-351)", "technique": "protein-binding microarray", "form": "double-stranded DNA, one strand shown", "sample": "in vitro", "tested at": "0.8 µM", "notes": "whole 60-bp probe, no competitor", "direction": "higher = stronger binding", "UniProt P17106, sequence (whole entry, looked up)": "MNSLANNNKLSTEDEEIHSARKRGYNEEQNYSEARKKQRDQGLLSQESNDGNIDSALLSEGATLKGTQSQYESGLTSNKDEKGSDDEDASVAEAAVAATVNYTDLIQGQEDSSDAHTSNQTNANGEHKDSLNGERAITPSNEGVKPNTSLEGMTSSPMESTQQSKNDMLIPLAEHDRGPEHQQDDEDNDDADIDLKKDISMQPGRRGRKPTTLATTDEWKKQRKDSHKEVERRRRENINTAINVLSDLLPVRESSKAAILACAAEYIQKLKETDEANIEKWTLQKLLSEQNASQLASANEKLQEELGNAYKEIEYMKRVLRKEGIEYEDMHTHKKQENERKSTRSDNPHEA"}
{"Sequence": "CTAGATGTTGGTTTGACCGTGATTGATGTCCAATTCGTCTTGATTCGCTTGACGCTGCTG", "fluorescence intensity [a.u.]": 567}
{"Sequence": "GAAAGGGACGATAACCATCAGCAGGAAAAACGGTAGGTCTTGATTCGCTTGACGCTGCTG", "fluorescence intensity [a.u.]": 525}
{"Sequence": "CTACTAAAATGTCCAGACATGATCTTAAGCGGATTCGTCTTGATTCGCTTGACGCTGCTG", "fluorescence intensity [a.u.]": 508}
{"Sequence": "GAAGCCATAACCAAGCGCACGCATACATATATATAGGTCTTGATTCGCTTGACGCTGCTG", "fluorescence intensity [a.u.]": 522}
{"Sequence": "TGTACGAAGCTATGTGATCTGCGTATAGTAGTTAGGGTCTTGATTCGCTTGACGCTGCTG", "fluorescence intensity [a.u.]": 547}
{"Sequence": "TGTACGAAGCTATTAAGCACGCATATAGTAGTTAGGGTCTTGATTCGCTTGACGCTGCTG", "fluorescence intensity [a.u.]": 523}
{"Sequence": "GAAACAAGATCTCGCCGCGTGTATAGATATATATAGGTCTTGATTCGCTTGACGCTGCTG", "fluorescence intensity [a.u.]": 573}
{"Sequence": "CTAATCCCCAAGGATCGCATGACAGAGTATGCTTTCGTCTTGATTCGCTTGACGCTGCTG", "fluorescence intensity [a.u.]": 532}
{"Sequence": "GAATCTGGGAACTTGAACGTGGAATTTTTCATTTAGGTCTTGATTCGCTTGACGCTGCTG", "fluorescence intensity [a.u.]": 523}
{"Sequence": "CTATACTCACTTGCTCACGCAATAATTTGATTTTTCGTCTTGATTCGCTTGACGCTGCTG", "fluorescence intensity [a.u.]": 535}
{"Sequence": "CTAAATCGGACTTATCTGGTGATCGAAGAAACTTTCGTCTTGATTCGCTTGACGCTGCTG", "fluorescence intensity [a.u.]": 557}
{"data": "Block 2", "target": "Interferon regulatory factor 3, full length, phosphomimetic (IRF3, Homo sapiens, UniProt Q14653, residues 1-427, S386D/S396D/S398D/S402D/T404D/S405D)", "technique": "protein-binding microarray", "form": "double-stranded DNA, one strand shown", "sample": "in vitro", "tested at": "2540 nM top", "notes": "60-bp whole probe", "added": "salmon DNA 0.4 mg/ml", "reference": "random background probes", "direction": "higher = stronger binding", "shared flanks, not repeated": "GCCTAGCAC … GTCTTGATTCGCTTGACGCTGCTG", "UniProt Q14653, sequence (whole entry, unmodified, looked up)": "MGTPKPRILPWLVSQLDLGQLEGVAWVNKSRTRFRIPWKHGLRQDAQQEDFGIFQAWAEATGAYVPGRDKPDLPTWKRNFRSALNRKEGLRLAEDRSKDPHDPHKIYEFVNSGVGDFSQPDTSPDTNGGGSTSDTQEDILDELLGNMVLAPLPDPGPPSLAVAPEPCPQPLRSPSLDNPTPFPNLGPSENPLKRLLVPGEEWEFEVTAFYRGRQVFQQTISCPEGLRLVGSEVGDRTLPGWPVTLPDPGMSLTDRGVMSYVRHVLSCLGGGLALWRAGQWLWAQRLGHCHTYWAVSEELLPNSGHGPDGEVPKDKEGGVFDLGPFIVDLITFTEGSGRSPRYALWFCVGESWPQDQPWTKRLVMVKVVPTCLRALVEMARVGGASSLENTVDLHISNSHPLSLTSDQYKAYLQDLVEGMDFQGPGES"}
{"Sequence": "TTAGAACTGGGGTTCCGATTAGTGCTA", "fitted relative affinity [z-score]": 0.868}
{"Sequence": "TCATATGTCCTGTCTACAACTGTGCTA", "fitted relative affinity [z-score]": 0.989}
{"Sequence": "TTAAATTTCAGACTGGATTAGTGCTAG", "fitted relative affinity [z-score]": 0.629}
{"Sequence": "TTAGGGTTCCTTCTCCTTTAGTGCTAG", "fitted relative affinity [z-score]": 5.28}
{"Sequence": "TTCCCTCTGCTCCTCTTTTTGTGCTAG", "fitted relative affinity [z-score]": 0.524}
{"Sequence": "GTAGGTTTCGGTCTCGGTTAGTGCTAG", "fitted relative affinity [z-score]": 8.26}
{"Sequence": "TCATTTTTATCAATCATACTGTGCTAG", "fitted relative affinity [z-score]": 1.56}
{"Sequence": "GACGGTTTCGGTATCGGGTCGTGCTAG", "fitted relative affinity [z-score]": 8.04}
{"Sequence": "TCATCTTTAACATATTCTACTGTGCTA", "fitted relative affinity [z-score]": 1.08}
{"Sequence": "GACGGTATCGGTCACGGGACGTGCTAG", "fitted relative affinity [z-score]": 1.92}
{"data": "Block 3", "target": "Histone acetyltransferase KAT6A, winged helix 1, GST fusion (KAT6A, Homo sapiens, UniProt Q92794, residues 1-85)", "technique": "protein binding microarray", "form": "double-stranded DNA, one strand shown", "sample": "in vitro", "tested at": "not given", "notes": "8-mer, flanks averaged, mean of 2 arrays, mostly near background", "reference": "not given", "direction": "higher = stronger binding", "Target sequence (chain)": "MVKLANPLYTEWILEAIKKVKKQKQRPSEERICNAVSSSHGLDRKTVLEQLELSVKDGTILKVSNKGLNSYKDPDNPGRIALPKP"}
{"Sequence": "GTTGGCTA", "E-score": 0.0419}
{"Sequence": "ACAGCCCC", "E-score": 0.118}
{"Sequence": "CTTGATCC", "E-score": -0.163}
{"Sequence": "CTCCGTAA", "E-score": 0.144}
{"Sequence": "GAACCGAC", "E-score": 0.128}
{"Sequence": "ATGTTGAC", "E-score": 0.0245}
{"Sequence": "TAAGTGCA", "E-score": -0.247}
{"Sequence": "GGACCAAA", "E-score": -0.22}
{"Sequence": "ATTGTGCC", "E-score": -0.052}
{"Sequence": "CTATGCCA", "E-score": -0.227}
{"Sequence": "GCCATTAC", "E-score": 0.128}
{"data": "Other studies, line by line"}
{"Substance": "PhoQ, residues 284 288 289 292 302 303 AEGLLW", "target": "PhoP, residues 12 14 15 18 19 NQGLL (Escherichia coli, UniProt P23836)", "assay": "Sort-seq, item: YFP reporter", "system": "E. coli", "conditions": "PhoQ-PhoP variant library, added: 10 µM Mg2+", "scale": "reference: high Mg2+ state, higher = stronger signaling", "quantity": "fold induction", "value": 1.67}
{"note": "Repeated from above (block 3):"}
{"Sequence": "GGACCAAA", "E-score": -0.22}
{"Sequence": "TAAGTGCA", "E-score": -0.247}
{"Sequence": "CTCCGTAA", "E-score": 0.144}
{"Sequence": "GAACCGAC", "E-score": 0.128}
